# Published values collected from several papers.
# A part holds a random share of what one study measured. “And” joins repeats or separate records; there may be more than shown.

# Sample 1 — technique: protein-binding microarray; molecule type: double-stranded DNA, one strand shown; sample: in vitro; concentration: 0.8 µM; notes: whole 60-bp probe, no competitor; reading: higher = stronger binding; constant ends, left off below: … GTCTTGATTCGCTTGACGCTGCTG
# Target: Centromere-binding protein 1, full length, N-terminal tag (CBF1, Saccharomyces cerevisiae, UniProt P17106, residues 1-351)
# UniProt P17106, sequence (whole entry, looked up): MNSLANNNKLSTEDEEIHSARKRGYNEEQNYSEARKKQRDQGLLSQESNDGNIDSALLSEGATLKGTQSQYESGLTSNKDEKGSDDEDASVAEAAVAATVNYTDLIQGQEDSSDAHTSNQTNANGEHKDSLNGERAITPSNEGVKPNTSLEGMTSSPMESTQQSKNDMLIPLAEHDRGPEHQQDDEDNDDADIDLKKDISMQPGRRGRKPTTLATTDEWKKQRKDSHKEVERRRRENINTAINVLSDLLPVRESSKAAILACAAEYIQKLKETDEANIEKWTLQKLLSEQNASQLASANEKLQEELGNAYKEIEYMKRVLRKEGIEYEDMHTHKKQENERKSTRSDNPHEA
Oligonucleotide,fluorescence intensity [a.u.]
CTACAGTCTGTACGTGTTGTTGTGGCTGATACATTC,510
CTACCTTAATGTGGACAGCTGAGATGAAGGTGGTTC,535
CTAATATATCTCCGTCAGGTTCGATCCAGACTCTTC,528
GAAAGTATGGCGAAGAACGTGGCGCGCTGGAGTTAG,536
CTAACGAACGTTCACCAGACATTTGGAGGCAGCTTC,496
CTATTCCGAGATCCTCAGCTGACAAATAAATGTTTC,968
GAATACTCTATACATCACGAAGTCTACGGCAACTAG,548
GAACTGTGTAGGAAAGAGGTGACGTCCTAGGCTTAG,518

# Sample 2 — technique: protein-binding microarray; molecule type: double-stranded DNA, one strand shown; sample: in vitro; concentration: not given; reading: higher = stronger binding
# Target: TATA-box-binding protein 1 (TBP1, Arabidopsis thaliana, UniProt P28147, residues 1-200, full length assumed)
# Notes: k-mer, scored over probes, only values ≥0.25
# Target sequence (chain): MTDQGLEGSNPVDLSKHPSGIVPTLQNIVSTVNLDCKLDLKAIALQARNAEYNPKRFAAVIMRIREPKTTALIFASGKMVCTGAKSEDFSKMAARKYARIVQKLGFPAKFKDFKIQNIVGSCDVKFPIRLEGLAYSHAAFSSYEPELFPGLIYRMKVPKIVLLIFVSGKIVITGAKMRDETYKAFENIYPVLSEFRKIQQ
Oligonucleotide,E-score
CTTATAA,0.469
ATATATG,0.462
ATATTTG,0.342
ATTGATA,0.327
AATATGG,0.264
AAATATG,0.33
ACTTTTA,0.349
AAAAAGG,0.273

# Sample 3 — technique: EMSA with sequencing; molecule type: double-stranded DNA, one strand shown; sample: in vitro; concentration: 10 and 20 nM; reference: negative control set to 0; reading: higher = stronger binding
# Target: Hepatocyte nuclear factor 3-alpha (Foxa1, Mus musculus, UniProt P35582, residues 1-468, full length assumed)
# UniProt P35582, sequence (whole entry, looked up): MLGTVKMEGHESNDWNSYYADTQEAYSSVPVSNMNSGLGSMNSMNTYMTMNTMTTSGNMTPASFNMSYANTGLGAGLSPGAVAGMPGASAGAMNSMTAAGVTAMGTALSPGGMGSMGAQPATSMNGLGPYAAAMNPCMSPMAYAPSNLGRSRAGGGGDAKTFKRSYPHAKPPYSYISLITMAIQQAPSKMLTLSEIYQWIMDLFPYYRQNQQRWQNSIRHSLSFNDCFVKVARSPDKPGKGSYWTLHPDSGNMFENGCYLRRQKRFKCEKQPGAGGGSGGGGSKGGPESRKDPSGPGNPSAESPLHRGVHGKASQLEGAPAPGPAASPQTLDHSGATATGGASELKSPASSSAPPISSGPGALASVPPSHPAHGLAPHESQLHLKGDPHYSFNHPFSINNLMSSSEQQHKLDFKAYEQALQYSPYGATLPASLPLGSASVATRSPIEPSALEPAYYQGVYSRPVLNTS
# Notes: whole designed probe, mean of two concentrations, ends assumed
# Constant ends, left off below: GTGAGCGGTGCCCATTGATGGGGAAC … TTTCACTGGGATCGTGGGGAC
Oligonucleotide,normalised bound fraction [ratio]
TCTGGGTCATTTCCTTTTCTGGATTTAACTATTCAAAAGTCGGGGCCAGAGATACAGGAAAGTAGAGGCAGAGATCTTATTTATCGAAGTGTAAGATGGCATAGAAATTATCCTTAATCACTACTCCAGTTAGACCTTGTTCAGTCTGATGTTAGTGGTCTTTGCAGAGGATACTATATACAGTTTCCTCAAA,-0.0202
CAGCCTGCAGTGCGCTCAGTTAAACAATTCCAAATCAAGGAATTTTGTCTGATACAAGGAATTTGGGGTGTGTTTTCCTAACATGCACCCTGGGTAAATAGACTGCATTTCCGGGGGGGGGGCTGACCCAGCTGAAGCCAATATGCATTGCGGCCACAAGGTGGCGCGTCTGGGCCTGGCAAACCCCTGTGCT,0.222
AAGCATCTTGACTTTACTCTATTCTTTTCTCATACATTTTTTAGTATTTTCATTTTAAAGGTAAATAAAATATTTTGAAATATATTACCTGTGTAAACAAGAAAGCATGAAACTAGAAATAATTAATATTTTTTATTGAACATTTTATTTTCTGTGCACATTAAAGTCCATGATGATATTTATTTTTCTCTTT,0.457
TTATGATCTGAGTATATATAGTAAGTACCTCCCCTTTCAGGGTAAGGCAGTAGGTAATGGTGAACAGCGTAGCAAAAGGTGACTCAGGTTGAGTAAACAACACCAAGCATATCTGACTCAAGGAATGCTTCAGAGGCCAGGGGTGCATGCCTGTAATCCCAGCACCTTGGAAGGCTGACACAGGAGGATCACT,0.39
TTTATCTCTAAAGTGGACATGATTGATGGCACAGGAATGCATTCAGCTGCAAGTAACAGAAAACATGACCAACAATGTGGGAGAGACATAGATGTTTACTTTGCTCATGTAAGAAGATGACAGAGCTTCTTCTCCAAGAAAACACCAAATGGCAGATGACACAGTGCAGTGGGAGGCCCAGAGGCCCTGGGAT,0.374
TGTTTTAAGAGAAAAAGGGTTCCATGGGATCTCAAACTCTTGAGAGCTCTCTCTGTAGGTGGGAGTTCTGTCATGTGGGGTTTGTGCCCTTGTAAATTACAATGCAGAATGAACACGTGATATTTGACTCCACCTCTCCCCCACACCCAGACTGTGCCCACTTCCCCTCCTATGACATTTGGATCTTTCCATA,-0.032
ATCTTCCCCCTCTTCCTTGCCCCACCAGCTCACCTTCCCGGGTTATTTGCACAAAGGAAAATAAATAAAGCCGGCATTCGTTAACCCTCTTCACGCGCATACTGCTGTTTGCTCTGCATGAATCATGGTCCTTACGCGACGCCAGGCTCCGGGAGAGCAAAGCACCGTGTCAGGCGCATGATCCGGGGTGGCC,0.372
ATCTTCCCCCTCTTCCTTGCCCCACCAGCTCACCTTCCCGGGTTATTTGCAGATAGGAAAATAAATAAAGCCGGCATTCGTTAACCCTCTTCTGGCACATCTCGAGGTTTGCTCTGGATGAATCATGGTCCTTTGGCGACGCCAGGCTCCGGGAGAGCAAAGCACCGTGTCAGGGCCATGATCCGGGGTGGCC,0.34

# Single results of other studies
Structure (SMILES),cell line,assay,system,conditions,scale,endpoint,result
C[C@H](c1ccc(F)cc1)N(Cc1ccc(Cl)c(C(=O)O)c1)C(=O)c1cnc2ccccc2c1,normal organoid sample H,CellTiter-Glo,human,"1 µM, 4 days",reference: DMSO,viability,97.8% and 98.7%
